Measurements of several laboratories.
Numbered parts are unrelated; each lists some results of a single study. “And” joins repeats or separate records; there may be more than shown.

Series 1
Target: Ribosomal protein S6 kinase alpha-1 (RPS6KA1, Homo sapiens, UniProt Q15418)
Sequence of UniProt Q15418 (whole entry, looked up): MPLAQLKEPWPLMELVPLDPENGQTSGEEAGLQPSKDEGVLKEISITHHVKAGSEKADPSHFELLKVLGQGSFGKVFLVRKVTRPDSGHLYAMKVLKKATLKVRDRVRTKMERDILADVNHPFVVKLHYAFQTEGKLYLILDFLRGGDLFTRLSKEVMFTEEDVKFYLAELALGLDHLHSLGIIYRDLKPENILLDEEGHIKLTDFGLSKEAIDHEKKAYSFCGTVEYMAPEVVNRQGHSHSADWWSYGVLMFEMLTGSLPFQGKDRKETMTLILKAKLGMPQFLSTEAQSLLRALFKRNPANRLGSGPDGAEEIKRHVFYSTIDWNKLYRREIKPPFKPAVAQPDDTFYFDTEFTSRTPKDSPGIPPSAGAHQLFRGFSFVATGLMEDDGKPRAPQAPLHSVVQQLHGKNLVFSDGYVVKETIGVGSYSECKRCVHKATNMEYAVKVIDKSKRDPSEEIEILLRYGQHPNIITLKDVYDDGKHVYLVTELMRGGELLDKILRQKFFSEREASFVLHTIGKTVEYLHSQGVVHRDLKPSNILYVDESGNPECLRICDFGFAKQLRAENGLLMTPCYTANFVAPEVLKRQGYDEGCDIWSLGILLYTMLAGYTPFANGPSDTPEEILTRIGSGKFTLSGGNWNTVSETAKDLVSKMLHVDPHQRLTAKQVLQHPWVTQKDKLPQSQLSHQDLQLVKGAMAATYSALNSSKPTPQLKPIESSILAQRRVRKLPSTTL
Effect on: enzyme activity
Mode: inhibitor
Concentration: 0.5 µM
Relative to: control
| Structure (SMILES) | remaining activity [%] |
| --- | --- |
| O=C(O)/C=C/c1cc(Br)c(Br)c(Br)c1Br | 90.5 |
| O=C1c2ccccc2-c2nc3nnnn3nc21 | 53.1 |
| NC(=O)c1cccc(-c2cc(Nc3ccc(OC(F)(F)F)cc3)ncn2)c1 | 92.7 |
| CCCCc1c(-c2ccc(O)cc2)[nH]c2nccnc12 | 82.6 |
| C[C@@H](N)[C@H]1CC[C@H](C(=O)Nc2ccncc2)CC1 | 84.9 |
| N#CC(c1ccnc(NCCc2cccnc2)n1)c1nc2ccccc2s1 (stereo not shown) | 79 |
| Nc1nc(Nc2ccc(S(N)(=O)=O)cc2)nn1C(=S)Nc1c(F)cccc1F | 5.34 |
| CC(C)N(CCC(=O)c1ccc2ccccc2c1)Cc1ccccc1 | 97.6 |
| N#C/C(=C(/N)SC1C=CC=CC1)c1cccc(C(O)c2ccncc2)c1 (stereo not shown) | 101 |
| O=Nc1c(-c2c(O)[nH]c3ccccc23)[nH]c2ccccc12 | 39.6 |
| CC(C)n1cnc2c(Nc3cccc(Cl)c3)nc(NCCO)nc21 | 69.1 |
| CNc1cc2c(Nc3cccc(Br)c3)ncnc2cn1 | 90.9 |
| CCN(CC)CCCCN1c2ccccc2Oc2ccc(Cl)cc21 | 97.5 |
| c1cc(-c2cnn3cc(-c4ccc(OCCN5CCCCC5)cc4)cnc23)ccn1 | 79.2 |
| CC(C)(C)c1nc2c3cc[nH]c(=O)c3c3cc(F)ccc3c2[nH]1 | 38.6 |
| Clc1ccc(Nc2nnc(Cc3ccncc3)c3ccccc23)cc1 | 113 |
| FC(F)(F)c1ccc(/C=C/c2nc(COc3ccc(CCCCn4ccnn4)cc3)co2)cc1 | 97.9 |
| O=C1NC(=O)/C(=C/c2ccc3c(c2)OC(F)(F)O3)S1 | 71.1 |
| O=c1c(-c2ccc(F)cc2)c(-c2ccncc2)[nH]n1-c1ccc(Cl)cc1 | 103 |
| O=C(c1ccccc1)c1ccc(N2CCOCC2)cc1O | 96.2 |

Series 2
Cell line: Huh-7
Concentration: 10 µM
Time: 24 h
| SMILES | viability [%] |
| --- | --- |
| Cn1cnc2c1c(=O)[nH]c(=O)n2C | 101 |
| NS(=O)(=O)c1cc2c(cc1Cl)NC(C(Cl)Cl)NS2(=O)=O (stereo not shown) | 102 |
| CCCCOC(=O)c1ccc(O)cc1 | 101 |
| CCCCC(=O)N(Cc1ccc(-c2ccccc2-c2nnn[nH]2)cc1)[C@H](C(=O)O)C(C)C | 99.4 |
| C[N+](C)(C)CCOC(N)=O | 102 |
| CCC[C@@H]1C[C@@H](C(=O)N[C@@H]([C@H]2O[C@H](SC)[C@H](O)[C@@H](O)[C@H]2O)[C@@H](C)O)N(C)C1 | 101 |
| COc1cc(CNC(=O)CCCC/C=C/C(C)C)ccc1O | 90.3 |
| CCOC(=O)C1=C[C@@H](OC(CC)CC)[C@H](NC(C)=O)[C@@H](N)C1 | 105 |
| COc1ccc(CN(CCN(C)C)c2ncccn2)cc1 | 102 |

Series 3
Cell line: mouse MPNST tumor cells
Method: high-content immunofluorescence imaging
Measured: nuclear SOX9
Concentration: 10 µM
Time: 12 h
Setting: mean of 2 replicates
Relative to: DMSO control
Reading: higher = more nuclear SOX9
| Compound | nuclear SOX9 intensity |
| --- | --- |
| CC(=O)Oc1ccccc1C(=O)Oc1ccccc1C(=O)O | 106 % of DMSO |
| CCOC(=O)c1ccc(OC(=O)CCCCCNC(=N)N)cc1 | 98.1 % of DMSO |
| COc1ccncc1C(=O)NC(=O)Nc1ccc(-c2ccccc2)c(C(F)(F)F)c1 | 112 % of DMSO |
| COc1ccc(C(=O)c2ccccc2O)c(O)c1 | 100 % of DMSO |
| CC(=O)OCC(=O)[C@@]12OC(C)(C)O[C@@H]1C[C@H]1[C@@H]3C[C@H](F)C4=CC(=O)C=C[C@]4(C)[C@@]3(F)[C@@H](O)C[C@@]12C | 67.8 % of DMSO |
| COc1ccc2nc3n[nH]c(C)c3c(NCCOCCO)c2c1 | 104 % of DMSO |
| COC(=O)[C@H](Cc1ccc([N+](=O)[O-])cc1)NC(=O)c1cccc2ccccc12 | 99.3 % of DMSO |
| COc1cc(N)c(Cl)cc1C(=O)NC1CCN(CCCOc2ccc(F)cc2)CC1OC (stereo not shown) | 169 % of DMSO and 96 % of DMSO and 179 % of DMSO |
| Cc1nc(-c2cnn(C)c2-c2ccc(C(F)(F)F)cn2)c2c(N3CCC3)ncnn12 | 101 % of DMSO |
| CC(=O)N(O)CCCCCNC(=O)CCC(=O)N(O)CCCCCNC(=O)CCC(=O)N(O)CCCCCN | 123 % of DMSO |
| Nc1nc2c(ccc3ccccc32)s1 | 93.8 % of DMSO |

Series 4
Cell line: normal-adjacent organoid sample E
Method: CellTiter-Glo
Concentration: 1 µM
Setting: replicate mean
Relative to: DMSO
| SMILES | viability [%] |
| --- | --- |
| CC1=C(C#N)C(c2ccc3[nH]nc(C)c3c2)C(C#N)=C(C)N1 | 122 |
| CCOCCn1cc(C(=O)Nc2ccc(-n3nc(-c4cccnc4)cc3C(F)(F)F)cn2)ccc1=O | 125 |
| O=C(NS(=O)(=O)c1ccc(NCC2CCOCC2)c([N+](=O)[O-])c1)c1ccc(N2CCN(Cc3ccc(C(F)(F)F)cc3-c3ccc(Cl)cc3)CC2)cc1Oc1cnc2[nH]ccc2c1 | 107 |
| CN(C(=O)c1ccccc1)c1cc(N(C)c2ccc3c(c2)CCc2ccc(C(=O)NCCN4CCOCC4)cc2C3=O)ccc1F | 110 |
| O=C(O)c1cc(-c2ccc(C3CCNCC3)cc2)c2ccc(-c3ccc(C(F)(F)F)cc3)cc2c1 | 118 |
| Cn1cc(Cl)c2c(Oc3c(F)cc(Nc4cc(Cl)nc(N)n4)cc3F)ccnc21 | 186 |
| CC(=O)Nc1c(C(C)=O)c(=O)n(C)c2nc(-c3ccc(Cl)cc3Cl)c(-c3ccc(Cl)cc3)cc12 | 104 |
| Cc1ccccc1Oc1cc(-n2c(=O)cc(C(F)(F)F)[nH]c2=O)c2ccccc2c1Cl | 98.1 |
| CN(C)CC#Cc1ccc(OCCCc2sc(N3CCc4cccc(C(=O)Nc5nc6ccccc6s5)c4C3)nc2C(=O)O)c(F)c1 | 56.4 |
| CN(C)C(=O)Cn1cc(-c2nc(C3(c4ccc(-c5cnc(N)nc5)cc4)CC3)no2)cn1 | 94 |
| O=c1nc(-c2ccccn2)sc2ccccc12 | 66.9 |
| C[C@@H]1CN(c2cc(-c3nn(C)c4ccc(OC5(C)CC5)cc34)ncn2)C[C@H](C)O1 | 112 |
| CN([C@@H]1CCc2c(CC(=O)O)c3ccccc3n2C1)S(=O)(=O)c1ccc(F)cc1 | 123 |
| CCS(=O)(=O)c1cc2cc(C[C@](O)(CC(C)(C)c3ccc(F)cc3C(N)=O)C(F)(F)F)[nH]c2cn1 | 102 |
| C[C@H](NC(=O)c1cnc2n1[C@](C)(Cc1ccc(C#N)cc1)C(=O)N2c1cc(Cl)c(F)c(Cl)c1)C(=O)NC1(c2ccccn2)CC1 | 116 |

Repeated from above (series 4):
| SMILES | viability [%] |
| --- | --- |
| CN(C)CC#Cc1ccc(OCCCc2sc(N3CCc4cccc(C(=O)Nc5nc6ccccc6s5)c4C3)nc2C(=O)O)c(F)c1 | 56.4 |
| CN(C)C(=O)Cn1cc(-c2nc(C3(c4ccc(-c5cnc(N)nc5)cc4)CC3)no2)cn1 | 94 |
| O=c1nc(-c2ccccn2)sc2ccccc12 | 66.9 |
| C[C@@H]1CN(c2cc(-c3nn(C)c4ccc(OC5(C)CC5)cc34)ncn2)C[C@H](C)O1 | 112 |
| CN([C@@H]1CCc2c(CC(=O)O)c3ccccc3n2C1)S(=O)(=O)c1ccc(F)cc1 | 123 |
| CCS(=O)(=O)c1cc2cc(C[C@](O)(CC(C)(C)c3ccc(F)cc3C(N)=O)C(F)(F)F)[nH]c2cn1 | 102 |
| C[C@H](NC(=O)c1cnc2n1[C@](C)(Cc1ccc(C#N)cc1)C(=O)N2c1cc(Cl)c(F)c(Cl)c1)C(=O)NC1(c2ccccn2)CC1 | 116 |
